Published values of several laboratories.
Each numbered part is a random draw from the data of one study; scales do not carry over between parts. Positions count from the first letter of the parent shown.

Series 1 — target: CCND1, cyclin fold, Cln2 fusion (human); method: yeast growth competition, sequencing; sample: yeast; notes: strong parent motif; baseline: not given; reading: higher = stronger binding
Starting sequence: RBL1 docking peptide (human); GSAKRRLFGEDPP
Substitution	normalised enrichment score
R6M	1.46
L7R	-0.0668
P13T	1.62
G9P	3.12
K4Y	0.048
F8P	0.469
G1Y	3.98
D11P	0.952
R6F	0.566
L7C	0.564
P12L	1.83
F8R	0.00169
F8S	0.358
R6T	0.549
P12T	2.46
D11K	0.806
D11H	0.466
P12A	2.05
P12Q	1.6
G9I	1.59
P12M	1.62
K4W	0.372
R6E	1.84
R6D	0.132
K4P	0.124

Series 2 — method: RNA Bind-n-Seq; molecule type: RNA; sample: in vitro; tested at: 1 µM; notes: whole 134-nt RNA, ends assumed; added: 150 mM KCl; baseline: input library; reading: higher = stronger binding
Target: Ras GTPase-activating protein-binding protein 1, C-terminal RGG region (G3BP1, Homo sapiens, UniProt Q13283)
UniProt Q13283, sequence (whole entry, looked up): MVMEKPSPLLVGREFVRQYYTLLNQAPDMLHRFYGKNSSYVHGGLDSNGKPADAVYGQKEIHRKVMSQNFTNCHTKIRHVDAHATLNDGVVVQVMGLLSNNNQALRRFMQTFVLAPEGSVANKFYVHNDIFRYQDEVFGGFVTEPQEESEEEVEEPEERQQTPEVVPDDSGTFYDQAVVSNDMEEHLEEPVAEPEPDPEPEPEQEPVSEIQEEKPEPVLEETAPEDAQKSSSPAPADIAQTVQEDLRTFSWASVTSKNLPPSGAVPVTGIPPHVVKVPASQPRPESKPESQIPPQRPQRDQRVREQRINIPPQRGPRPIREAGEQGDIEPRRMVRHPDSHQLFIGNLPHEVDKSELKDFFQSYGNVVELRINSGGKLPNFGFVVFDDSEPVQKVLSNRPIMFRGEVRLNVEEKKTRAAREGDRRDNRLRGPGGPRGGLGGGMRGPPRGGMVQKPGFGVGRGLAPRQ
All sequences stand within: GGGAGUUCUACAGUCCGACGAUC … UGGAAUUCUCGGGUGUCAAGG
Oligonucleotide	log2 enrichment
CCUCAAGUCCUGUGCUACACAUCGUAUGUACCGAAUCGGCGGGGCGGGGCGGAAAGUAUUAUGUUACGCCGUUCGGAUCUGCACUUCCAG	-0.788
AGUCCUGUGCUACACAUCGUAUGUACCGAAUCAAAGUGUGUGUGUGUGUGUGUGUAAAAAAGUAUUAUGUUACGCCGUUCGGAUCUGCAC	0.834
CCUCAAGUCCUGUGCUACACAUCGUAUGUACCGAAUCGGAAAGGAAAGGUGGAAAGUAUUAUGUUACGCCGUUCGGAUCUGCACUUCCAG	-0.875
CAAGUCCUGUGCUACACAUCGUAUGUACCGAAUCGGAAAAGGAAAAGGGAAAAGGAAAGUAUUAUGUUACGCCGUUCGGAUCUGCACUUC	-1.75
GCAGGAAGUAAAAACAAAUGGAAAUGCUUCGGAUAGUGGCAGGGGUGGGGGUUGCUAAGGAAAGGGUGGGAUUGGAGUGGGUAAAGAGUU	1.65
CCUCAAGUCCUGUGCUACACAUCGUAUGUACCGAAUCGGUGGAAAAAGGAGGAAAGUAUUAUGUUACGCCGUUCGGAUCUGCACUUCCAG	-0.637
CACAGACAACACGCACCCACACAGACACAGAGGGAAGGGGUUGGAAAGGGGACAGGGUGCACAGCAGGGCGGGGUAGGACCCCAGCCCCU	0.172
GCAGGAAGUAAAAACAAAUGGAUAUGCUUCGGAUAGUGGCAGGGGUGGGGGUUGCUAAGGAAAGGGUGGGAUGGGAGUGGGUAAAGAGUU	2.67
UCCUGUGCUACACAUCGUAUGUACCGAAUCGGGGUUUUUGGGGUUUUUGGGUUUUUGGGAAAGUAUUAUGUUACGCCGUUCGGAUCUGCA	0.344
GCAGGAAGUAAAAACAAAUGGAAAUGCUUCGGAUAGUGGCAGGGGUGGGGGUUGCUAAGGAAAGGGUGGGCUGGGAGUGGGUAAAGAGUU	2.32
GCAGUAAGUAAAAACAAAUGGAAAUGCUUCGGAUAGUGGCAGGGGUGGGGGUUGCUAAGGAAAGGGUGGGAUGGGAGUGGGUAAAGAGUU	1.75
AAGUCCUGUGCUACACAUCGUAUGUACCGAAUCGGGGAGGGGAAAGGGGAAAGGGGAAAGUAUUAUGUUACGCCGUUCGGAUCUGCACUU	3.37
CACAGACAACACGCACCCACACAGACACAGAGGGAAGGGGUUGGGAUGGGGACAGGGUGCACAGCAGGGCGGGGUAGGGCCCCAGCCCCU	-0.927
GUCCUGUGCUACACAUCGUAUGUACCGAAUCAAAUUUAAACCCCCCCAAAUUUUUAAAAAAGUAUUAUGUUACGCCGUUCGGAUCUGCAC	-0.0699

Series 3 — method: aptamer microarray, sandwich; molecule type: DNA with 2'F-ANA; sample: in vitro; tested at: 200 nM; added: Cy3 exosite-II aptamer, 400 nM; reading: higher = stronger binding; oligonucleotide: GGTTGGTGTGGTTGG
Target: Prothrombin, mature alpha-thrombin (F2, Homo sapiens, UniProt P00734)
Notes: whole 15-mer aptamer, many near background
Modification	mean fluorescence intensity [a.u.]
2'F-ANA at 1 2 6 8 10 11 14	177
2'F-ANA at 2 4 6 8 10 12 13 15	88.7
2'F-ANA at 2 5 11 12	122
2'F-ANA at 3 4 7 8 10 13 14 15	254
2'F-ANA at 1 5 6 9 10 11 12 14 15	166
2'F-ANA at 3 6 8 11 12	1170
2'F-ANA at 1 2 3 6 7 8 11 12 15	342
2'F-ANA at 6 8 9 10 11 15	128
2'F-ANA at 1 2 6 7 9 11 14 15	50.7
2'F-ANA at 1 3 8 10 14	56.8
2'F-ANA at 2 3 6 7 8 9 12 15	1040
2'F-ANA at 1 5 7 8 9 12 14	45.4
2'F-ANA at 4 5 7 10 11 14 15	44.9
2'F-ANA at 3 6 9 12 13 14 15	532
2'F-ANA at 1 2 3 4 5 6 7 14	278
2'F-ANA at 1 2 3 4 6 12 13 15	276
2'F-ANA at 1 8 12 14	79.4
2'F-ANA at 6 7 9 11 12 13 14	168
2'F-ANA at 4 8 11 12 13 14	115
2'F-ANA at 1 2 5 6 7 8 9 11 14	76.8
2'F-ANA at 1 2 4 5 6 7 8 10 14 15	62.6
2'F-ANA at 1 3 4 5 9 10 12 13 14	51.1
2'F-ANA at 1 2 7 8 10 15	57.5
2'F-ANA at 4 5 7 11 12 14	98.4
2'F-ANA at 6 8 11 12 13	631

Series 4 — target: BIRC6 UBC core domain (UniProt Q9NR09); method: yeast two-hybrid; sample: yeast; notes: mostly zero background; baseline: not given; reading: higher = stronger interaction
B1: TRIM2 RING domain (UniProt Q9C040); chain VRQIDKQFLICSICLERYKNPKVLPCLHTFCERCLQNYIPAHSLTLSCPVCRQTSILPEKGV
B2: MARCHF2 RING domain (UniProt Q9P0N8); chain RLLSTVIRALDTPSDGPFCRICHEGANGECLLSPCGCTGTLGAVHKSCLEKWLSSSNTSYCELCHTEFAVEKRPRPLTEWL
B3: TRIM68 RING domain (UniProt Q6AZZ1); chain LVEAIVEEVACPICMTFLREPMSIDCGHSFCHSCLSGLWEIPGESQNWGYTCPLCRAPVQPRNLRP
B4: RMND5B RING domain (UniProt Q96G75); chain MKCWYHSVFACPILRQQTSDSNPPIKLICGHVISRDALNKLINGGKLKCPYCPMEQNPADGK
B5: PJA2 RING domain (UniProt O43164); chain DHTAIGQEQCCPICCSEYIKDDIATELPCHHFFHKPCVSIWLQKSGTCPVCRRHFPPAVIEA
B6: MDM2 RING domain (UniProt Q00987); chain TQDKEESVESSLPLNAIEPCVICQGRPKNGCIVHGKTGHLMACFTCAKKLKKRNKPCPVCRQPIQMIVLTYFP
B7: RNF7 RING domain (UniProt Q9UBF6); chain AICRVQVMDACLRCQAENKQEDCVVVWGECNHSFHNCCMSLWVKQNNRCPLCQQDWVVQRIGK
B8: TRIM74 RING domain (UniProt Q86UV6); chain SLLELEDWLQCPICLEVFKESLMLQCGHSYCKGCLVSLSYHLDTKVRCPMCWQVVDGSSSLP
B9: RNF11 RING domain (UniProt Q9Y3C5); chain RDGSEKKIRECVICMMDFVYGDPIRFLPCMHIYHLDCIDDWLMRSFTCPSCMEPVDAALLSS
B10: RNF32 RING domain (UniProt Q9H0A6); chain VQALRRETHECSICLAPLSAAGGQRVGAGRRSREMALLSCSHVFHHACLLALEEFSVGDRPPFHACPLCRSCYQKKILEC
Target sequence (chain): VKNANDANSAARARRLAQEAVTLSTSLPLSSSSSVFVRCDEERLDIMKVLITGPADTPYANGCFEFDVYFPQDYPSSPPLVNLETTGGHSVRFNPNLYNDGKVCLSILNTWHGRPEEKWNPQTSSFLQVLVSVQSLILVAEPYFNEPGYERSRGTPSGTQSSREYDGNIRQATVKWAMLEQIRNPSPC
Sequence	lacZ reporter activity
B1 (TRIM2 RING domain)	0
B2 (MARCHF2 RING domain)	0
B3 (TRIM68 RING domain)	0
B4 (RMND5B RING domain)	0
B5 (PJA2 RING domain)	0
EDVLSKDAGECAICLEELQQGDTIARLPCLCIYHKGCIDEWFEVNRSCPEHPSD (ZNRF2 RING domain (UniProt Q8NHG8))	0
MEEMEEELKCPVCGSFYREPIILPCSHNLCQACARNILVQTPESESPQSHRAAGSGVSDY (TRIM9 RING domain (UniProt Q9C026))	0
FLSKVEETFQCICCQELVFRPITTVCQHNVCKDCLDRSFRAQVFSCPACRYDLGRSYAMQ (UHRF1 RING domain (UniProt Q96T88))	0
SNNDLASLFECPVCFDYVLPPILQCQSGHLVCSNCRPKLTCCPTCRGPLGSIRNLA (SIAH1 RING domain (UniProt Q8IUQ4))	0
KITELNPHLMCALCGGYFIDATTIVECLHSFCKTCIVRYLETNKYCPMCDVQVHKTRPLL (PCGF2 RING domain (UniProt P35227))	0
B6 (MDM2 RING domain)	0
B7 (RNF7 RING domain)	0
B8 (TRIM74 RING domain)	0
B9 (RNF11 RING domain)	0
B10 (RNF32 RING domain)	0
